# Experimental data collected from several papers.
# Parts stem from different laboratories: compare values within a part only. Changes are numbered by the printed parent chain.
# Sequence of UniProt Q9FKM7 (whole entry, looked up): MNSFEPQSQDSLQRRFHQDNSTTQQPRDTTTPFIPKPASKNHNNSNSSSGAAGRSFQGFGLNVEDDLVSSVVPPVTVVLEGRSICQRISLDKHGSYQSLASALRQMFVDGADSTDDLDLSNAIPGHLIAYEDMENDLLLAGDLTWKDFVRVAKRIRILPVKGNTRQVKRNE
# Sequence of UniProt Q94JM3 (whole entry, looked up): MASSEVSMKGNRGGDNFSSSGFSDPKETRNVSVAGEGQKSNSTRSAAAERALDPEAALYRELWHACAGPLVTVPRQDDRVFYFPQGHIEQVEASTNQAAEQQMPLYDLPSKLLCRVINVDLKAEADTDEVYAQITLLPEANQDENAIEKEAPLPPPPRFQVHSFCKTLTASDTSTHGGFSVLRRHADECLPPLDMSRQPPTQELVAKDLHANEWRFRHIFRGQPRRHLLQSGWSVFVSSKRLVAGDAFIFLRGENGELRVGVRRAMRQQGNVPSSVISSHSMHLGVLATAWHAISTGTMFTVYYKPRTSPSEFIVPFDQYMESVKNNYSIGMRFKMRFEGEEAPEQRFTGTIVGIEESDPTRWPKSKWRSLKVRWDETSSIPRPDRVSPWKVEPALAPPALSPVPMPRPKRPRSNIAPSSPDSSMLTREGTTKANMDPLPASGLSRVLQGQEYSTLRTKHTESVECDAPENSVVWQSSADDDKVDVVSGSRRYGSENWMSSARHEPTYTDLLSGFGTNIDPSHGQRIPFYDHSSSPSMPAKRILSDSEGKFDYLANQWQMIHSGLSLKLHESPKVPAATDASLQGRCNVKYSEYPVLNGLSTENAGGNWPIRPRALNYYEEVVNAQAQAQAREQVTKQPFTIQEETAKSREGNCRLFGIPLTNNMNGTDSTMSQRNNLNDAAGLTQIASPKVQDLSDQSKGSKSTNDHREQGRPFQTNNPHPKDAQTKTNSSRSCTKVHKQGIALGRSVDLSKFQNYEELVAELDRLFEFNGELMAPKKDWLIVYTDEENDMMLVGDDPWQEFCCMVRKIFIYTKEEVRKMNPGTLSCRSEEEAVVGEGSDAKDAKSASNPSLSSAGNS
# Sequence of UniProt P93024 (whole entry, looked up): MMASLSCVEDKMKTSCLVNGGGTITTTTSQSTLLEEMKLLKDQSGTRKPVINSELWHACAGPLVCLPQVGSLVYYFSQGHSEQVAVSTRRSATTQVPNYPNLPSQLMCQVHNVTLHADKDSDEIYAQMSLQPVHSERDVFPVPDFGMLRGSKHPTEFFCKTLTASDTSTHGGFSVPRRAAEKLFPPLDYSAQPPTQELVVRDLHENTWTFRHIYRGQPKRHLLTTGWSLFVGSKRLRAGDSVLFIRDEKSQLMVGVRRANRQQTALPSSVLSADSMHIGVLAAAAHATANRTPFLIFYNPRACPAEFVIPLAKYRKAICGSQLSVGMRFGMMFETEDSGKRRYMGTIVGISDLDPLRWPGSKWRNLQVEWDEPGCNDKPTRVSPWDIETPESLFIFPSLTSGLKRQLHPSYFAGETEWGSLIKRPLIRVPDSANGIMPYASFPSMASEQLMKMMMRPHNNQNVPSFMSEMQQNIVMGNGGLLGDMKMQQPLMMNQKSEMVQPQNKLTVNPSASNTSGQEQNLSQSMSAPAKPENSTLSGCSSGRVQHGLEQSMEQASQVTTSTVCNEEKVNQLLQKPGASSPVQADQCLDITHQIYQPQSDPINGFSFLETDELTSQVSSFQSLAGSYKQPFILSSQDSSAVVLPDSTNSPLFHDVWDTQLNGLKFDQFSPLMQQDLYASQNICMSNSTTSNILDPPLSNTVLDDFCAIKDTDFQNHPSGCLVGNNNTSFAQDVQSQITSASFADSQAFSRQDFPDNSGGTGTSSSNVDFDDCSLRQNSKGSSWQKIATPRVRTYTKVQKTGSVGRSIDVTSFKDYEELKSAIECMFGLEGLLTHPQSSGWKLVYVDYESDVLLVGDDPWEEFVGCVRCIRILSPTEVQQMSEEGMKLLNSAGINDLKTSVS
# Sequence of UniProt O23661 (whole entry, looked up): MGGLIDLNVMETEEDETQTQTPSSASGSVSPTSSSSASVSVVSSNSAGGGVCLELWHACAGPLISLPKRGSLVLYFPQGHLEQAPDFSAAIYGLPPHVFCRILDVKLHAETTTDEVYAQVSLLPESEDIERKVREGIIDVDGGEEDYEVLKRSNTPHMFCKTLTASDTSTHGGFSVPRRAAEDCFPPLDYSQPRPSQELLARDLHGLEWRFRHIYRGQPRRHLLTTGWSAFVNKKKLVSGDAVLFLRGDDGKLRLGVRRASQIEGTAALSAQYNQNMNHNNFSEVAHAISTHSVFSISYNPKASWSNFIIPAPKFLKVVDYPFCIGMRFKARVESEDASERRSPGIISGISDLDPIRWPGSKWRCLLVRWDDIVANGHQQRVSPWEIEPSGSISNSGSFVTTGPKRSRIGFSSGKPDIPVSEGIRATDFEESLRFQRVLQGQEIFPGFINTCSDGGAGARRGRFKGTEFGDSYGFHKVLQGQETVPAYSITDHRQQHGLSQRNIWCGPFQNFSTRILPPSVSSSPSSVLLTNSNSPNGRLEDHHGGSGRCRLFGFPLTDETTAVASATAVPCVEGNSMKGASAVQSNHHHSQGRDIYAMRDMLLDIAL

# Sample 1
# Sequence: B1 (IAA32)
# Method: two-hybrid
# Direction: higher = firmer interaction
# B1: IAA32 (Arabidopsis thaliana, UniProt Q8RYC6); chain MDPNTPADFFKGSSKFHTYYSQTKKGGGVIDLGLSLRTIQHETYLPPARMIGLDGYGELIDWSQPSYNSITQLKSEDTGHQRLAQGYYNNEGESRGKYAYVKVNLDGLVVGRKVCLVDQGAYATLALQLNDMFGMQTVSGLRLFQTESEFSLVYRDREGIWRNVGDVPWKEFVESVDRMRIARRNDALLPF
partner,how to read,positive tests
"ARF5 788-902 (Arabidopsis thaliana, UniProt P93024)",baseline: out of 4 tests,4
"ARF2 727-859 (Arabidopsis thaliana, UniProt Q94JM3)",baseline: out of 3 tests,2
"ETT (Arabidopsis thaliana, UniProt O23661)",baseline: out of 4 tests,1
"IAA34 (Arabidopsis thaliana, UniProt Q9C5X0)",baseline: out of 4 tests,3
"IAA33 (Arabidopsis thaliana, UniProt Q9FKM7)",baseline: out of 4 tests,1

# Sample 2
# Target: RING finger protein unkempt homolog, zinc fingers 1-6, GST-SBP tag (UNK, Homo sapiens, UniProt Q9C0B0, residues 30-357)
# Method: RNA Bind-n-Seq
# Form: RNA
# Matrix: in vitro
# Tested at: not given
# Setting: RNA with constant flanks, human and mouse sites, ends assumed
# Baseline: input RNA pool
# Direction: higher = stronger binding
# All sequences stand within: GGGAGUUCUACAGUCCGACGAUC … CAACAGAGGAUUGAGCAUCA
# Target sequence (chain): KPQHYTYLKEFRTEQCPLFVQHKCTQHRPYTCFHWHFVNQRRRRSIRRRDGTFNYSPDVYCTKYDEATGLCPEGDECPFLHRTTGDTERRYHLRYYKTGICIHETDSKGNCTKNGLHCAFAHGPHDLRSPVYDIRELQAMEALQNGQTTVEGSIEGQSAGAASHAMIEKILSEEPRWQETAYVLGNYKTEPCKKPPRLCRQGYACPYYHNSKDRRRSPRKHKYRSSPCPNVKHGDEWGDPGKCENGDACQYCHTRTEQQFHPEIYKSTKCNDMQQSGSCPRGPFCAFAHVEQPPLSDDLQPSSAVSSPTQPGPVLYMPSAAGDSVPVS
Strand,bound/input enrichment [ratio]
AUCAAACAUUACUUCAGUAUAGUUCCAGGAAAUGUGAGUUCUUCUCCCAGAUCUUCUGAUUUAGUCAAAUUAGCCCAAGAGUGCUGUUACCAUAAUAACAGGGGCAUUGCAGCUCAUGGA,1.06
AAUGCAGUUAUAUUUGGACCAGAAGGGACACCCUUUGAAGAUGGUACUUUUAAACUAGUAAUAGAAUUUUCUGAAGAAUAUCCAAAUAAACCACCAACCGUUAGGUUUUUAUCCAAAAUG,5.09
CAUGGCACAAGAAUAUAAGAAAGCAUGGGAUUAUGGCAACCACAGAAUCUCAGUAGUACAAGUUCCAUUCAGUUUUUUCUGAAAGAAAGCCCUCUGUUAAAGUGAAGCAAAGAAACUGUU,0.74
UCAUAUAUCCAACUCUGGAUUCUAAUAAAAUAAUUUGGAGAACUUUGAGAAAAAGGAAAACUGUUAAAUAAGAAAAGACCUAUUUAGAAAUUAUACUUUAGUCUAACGAAGAGGAGGUAC,18.5
CACAAUUGCUCUUACAAUUACAAAGCCGAUGCUGCUGAGAAAAUCAGAAAAGAAAAUCCAGUAGUUGUUGGUGAAAAGAUCCAAAAGAUUUGAACUCCUGCUGGAAUACAAAAUUCUUGA,0.0929
UUCGGAAAGAGAGAGCAGGCUGAAGAGGAACGAUAUUUCCGAGCACAGAGUAGAGAACAACUGGCAGCUUUGAAAAAACACCAUGAAGAAGAAAUCGUUCAUCAUAAGAAGGAGAUUGAG,0.34
ACCUGAGAAUGAUGCUAAGAAAAUUGAAGCACUGCUAAACCUUCCUAGAAACCCUUCAGUAAUAGAUAAACAAGACAAGGACUGAAAGUGCUCUGAACUUGAAACUCACUGGAGAGCUGA,0.511
GAACUUAUCACUGGAGCCUAAAAAUGAGGAUUCAGCUUUGCCAGAAAAGGACAAAACAAAUAACUCAUCAAGAUCUAAGAAGCCCAAAGGGUUAGAACUGACACCCGCCCUUGUGGUCAC,0.193

# Sample 3
# Target: TAR DNA-binding protein 43, full length, His tag (TARDBP, Homo sapiens, UniProt Q13148, residues 1-414)
# Method: RNA Bind-n-Seq
# Form: RNA
# Matrix: in vitro
# Tested at: 20 nM
# Setting: 6-mer, flanks averaged, single round
# Together with: 150 mM LiCl
# Baseline: input library
# Direction: higher = stronger binding
Strand,6-mer enrichment (R)
GUAUCG,0.941
CGAAGG,0.896
UGCAUA,0.92
ACGUCG,0.965
AAUAUU,1.03
UCGUGA,0.926
UAAUAC,0.901
CCUUCA,0.93

# Single results of other studies
# Starting sequence: viral docking peptide; YKVKRRLVFGADD; partner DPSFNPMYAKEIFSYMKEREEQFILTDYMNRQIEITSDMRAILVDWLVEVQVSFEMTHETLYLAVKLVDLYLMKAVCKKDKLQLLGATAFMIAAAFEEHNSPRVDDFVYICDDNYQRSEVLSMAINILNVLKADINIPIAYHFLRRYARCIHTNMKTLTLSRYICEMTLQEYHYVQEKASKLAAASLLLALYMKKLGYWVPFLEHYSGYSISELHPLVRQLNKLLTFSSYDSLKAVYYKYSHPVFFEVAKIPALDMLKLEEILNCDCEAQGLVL
Variant,target,test,test system,conditions,how to read,quantity,value
L7V,"CCNB3, cyclin fold, Cln2 fusion (human)","yeast growth competition, sequencing",yeast,strong parent motif,"baseline: not given, higher = stronger binding",normalised enrichment score,-0.179

# Excerpt of the above (sample 2):
Strand,bound/input enrichment [ratio]
AUCAAACAUUACUUCAGUAUAGUUCCAGGAAAUGUGAGUUCUUCUCCCAGAUCUUCUGAUUUAGUCAAAUUAGCCCAAGAGUGCUGUUACCAUAAUAACAGGGGCAUUGCAGCUCAUGGA,1.06
UCAUAUAUCCAACUCUGGAUUCUAAUAAAAUAAUUUGGAGAACUUUGAGAAAAAGGAAAACUGUUAAAUAAGAAAAGACCUAUUUAGAAAUUAUACUUUAGUCUAACGAAGAGGAGGUAC,18.5
ACCUGAGAAUGAUGCUAAGAAAAUUGAAGCACUGCUAAACCUUCCUAGAAACCCUUCAGUAAUAGAUAAACAAGACAAGGACUGAAAGUGCUCUGAACUUGAAACUCACUGGAGAGCUGA,0.511
